# Assay results gathered from unrelated publications.
# Lines come from different studies, so protocols differ. Values joined by “and” are separate records of one study, mostly repeats; a detail may differ. Numbers after ± are the reported error.
# HTR1B: 5-hydroxytryptamine receptor 1B (HTR1B, Homo sapiens, UniProt P28222)
# UniProt P28222, sequence (whole entry, looked up): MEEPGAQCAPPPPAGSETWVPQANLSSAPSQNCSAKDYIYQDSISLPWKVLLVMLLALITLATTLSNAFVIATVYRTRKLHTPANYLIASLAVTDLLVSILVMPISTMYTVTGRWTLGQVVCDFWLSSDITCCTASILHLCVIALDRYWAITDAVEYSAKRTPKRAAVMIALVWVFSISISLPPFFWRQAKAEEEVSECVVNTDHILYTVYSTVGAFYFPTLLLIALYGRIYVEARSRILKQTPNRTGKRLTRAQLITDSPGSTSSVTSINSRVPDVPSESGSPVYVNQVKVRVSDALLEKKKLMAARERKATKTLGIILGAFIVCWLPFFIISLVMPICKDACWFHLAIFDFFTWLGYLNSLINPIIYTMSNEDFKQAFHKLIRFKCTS
# CXCR4: C-X-C chemokine receptor type 4 (CXCR4, Homo sapiens, UniProt P61073)
# UniProt P61073, sequence (whole entry, looked up): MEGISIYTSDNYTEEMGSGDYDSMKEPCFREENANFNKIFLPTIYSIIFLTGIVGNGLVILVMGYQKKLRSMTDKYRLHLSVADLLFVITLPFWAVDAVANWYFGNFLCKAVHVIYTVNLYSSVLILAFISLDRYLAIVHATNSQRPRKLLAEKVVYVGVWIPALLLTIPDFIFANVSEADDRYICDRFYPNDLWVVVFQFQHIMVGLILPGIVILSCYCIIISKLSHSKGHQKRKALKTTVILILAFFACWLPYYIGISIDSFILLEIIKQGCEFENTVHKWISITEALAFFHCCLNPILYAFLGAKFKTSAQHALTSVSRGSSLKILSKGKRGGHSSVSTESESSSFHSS
# SETDB1 triple Tudor domain: Histone-lysine N-methyltransferase SETDB1, triple Tudor domain (SETDB1, Homo sapiens, UniProt Q15047)
# AMY2: Pancreatic alpha-amylase (AMY2, Sus scrofa, UniProt P00690)
# UniProt P00690, sequence (whole entry, looked up): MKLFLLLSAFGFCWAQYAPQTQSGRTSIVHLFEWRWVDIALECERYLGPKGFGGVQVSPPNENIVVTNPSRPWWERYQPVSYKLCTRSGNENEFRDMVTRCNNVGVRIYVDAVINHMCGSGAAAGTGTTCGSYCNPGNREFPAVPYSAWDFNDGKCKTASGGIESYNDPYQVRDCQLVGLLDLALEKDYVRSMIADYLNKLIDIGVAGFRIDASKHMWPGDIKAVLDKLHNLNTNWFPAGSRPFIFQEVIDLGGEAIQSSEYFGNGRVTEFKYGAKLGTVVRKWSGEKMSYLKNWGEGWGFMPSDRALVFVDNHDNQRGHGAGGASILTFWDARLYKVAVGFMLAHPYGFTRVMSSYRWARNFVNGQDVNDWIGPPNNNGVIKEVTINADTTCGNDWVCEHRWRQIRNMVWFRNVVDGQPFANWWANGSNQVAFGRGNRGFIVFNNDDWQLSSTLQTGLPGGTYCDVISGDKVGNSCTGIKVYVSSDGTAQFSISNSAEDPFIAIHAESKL
# SIRT3: NAD-dependent protein deacetylase sirtuin-3, mitochondrial (SIRT3, Homo sapiens, UniProt Q9NTG7)
# UniProt Q9NTG7, sequence (whole entry, looked up): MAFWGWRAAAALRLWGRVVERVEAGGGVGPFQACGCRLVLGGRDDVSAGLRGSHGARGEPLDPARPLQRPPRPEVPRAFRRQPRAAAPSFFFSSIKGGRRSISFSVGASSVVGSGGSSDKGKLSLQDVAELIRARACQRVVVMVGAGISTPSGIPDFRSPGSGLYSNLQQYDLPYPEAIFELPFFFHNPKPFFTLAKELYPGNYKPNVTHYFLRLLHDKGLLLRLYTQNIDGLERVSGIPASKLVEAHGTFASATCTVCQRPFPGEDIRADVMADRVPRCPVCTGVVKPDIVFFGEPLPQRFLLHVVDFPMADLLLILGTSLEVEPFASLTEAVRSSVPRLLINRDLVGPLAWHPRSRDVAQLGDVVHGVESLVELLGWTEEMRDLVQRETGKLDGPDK
# F2: Prothrombin (F2, Homo sapiens, UniProt P00734)
# SIRT1: NAD-dependent protein deacetylase sirtuin-1 (SIRT1, Homo sapiens, UniProt Q96EB6)
# UniProt Q96EB6, sequence (whole entry, looked up): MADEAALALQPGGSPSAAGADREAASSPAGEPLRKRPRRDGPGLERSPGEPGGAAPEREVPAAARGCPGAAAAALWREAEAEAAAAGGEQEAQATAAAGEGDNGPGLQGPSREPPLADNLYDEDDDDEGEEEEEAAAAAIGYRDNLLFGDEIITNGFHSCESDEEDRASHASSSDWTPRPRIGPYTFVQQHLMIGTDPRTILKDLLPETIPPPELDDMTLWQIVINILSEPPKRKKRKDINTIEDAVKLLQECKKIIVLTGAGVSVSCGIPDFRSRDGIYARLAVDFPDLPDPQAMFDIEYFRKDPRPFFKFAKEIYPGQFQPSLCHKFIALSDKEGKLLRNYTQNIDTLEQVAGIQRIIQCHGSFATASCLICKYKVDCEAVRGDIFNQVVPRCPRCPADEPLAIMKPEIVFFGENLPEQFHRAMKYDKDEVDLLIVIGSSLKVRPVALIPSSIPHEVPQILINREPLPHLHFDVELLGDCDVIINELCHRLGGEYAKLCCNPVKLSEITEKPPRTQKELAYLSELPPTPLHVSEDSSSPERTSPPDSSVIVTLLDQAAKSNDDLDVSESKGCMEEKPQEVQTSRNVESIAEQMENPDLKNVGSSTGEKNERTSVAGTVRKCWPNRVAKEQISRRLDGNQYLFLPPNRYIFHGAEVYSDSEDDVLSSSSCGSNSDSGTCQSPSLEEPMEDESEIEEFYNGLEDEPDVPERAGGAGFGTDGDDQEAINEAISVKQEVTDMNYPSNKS
# SRPK3: SRSF protein kinase 3 (SRPK3, Homo sapiens, UniProt Q9UPE1)
# UniProt Q9UM07, sequence (whole entry, looked up): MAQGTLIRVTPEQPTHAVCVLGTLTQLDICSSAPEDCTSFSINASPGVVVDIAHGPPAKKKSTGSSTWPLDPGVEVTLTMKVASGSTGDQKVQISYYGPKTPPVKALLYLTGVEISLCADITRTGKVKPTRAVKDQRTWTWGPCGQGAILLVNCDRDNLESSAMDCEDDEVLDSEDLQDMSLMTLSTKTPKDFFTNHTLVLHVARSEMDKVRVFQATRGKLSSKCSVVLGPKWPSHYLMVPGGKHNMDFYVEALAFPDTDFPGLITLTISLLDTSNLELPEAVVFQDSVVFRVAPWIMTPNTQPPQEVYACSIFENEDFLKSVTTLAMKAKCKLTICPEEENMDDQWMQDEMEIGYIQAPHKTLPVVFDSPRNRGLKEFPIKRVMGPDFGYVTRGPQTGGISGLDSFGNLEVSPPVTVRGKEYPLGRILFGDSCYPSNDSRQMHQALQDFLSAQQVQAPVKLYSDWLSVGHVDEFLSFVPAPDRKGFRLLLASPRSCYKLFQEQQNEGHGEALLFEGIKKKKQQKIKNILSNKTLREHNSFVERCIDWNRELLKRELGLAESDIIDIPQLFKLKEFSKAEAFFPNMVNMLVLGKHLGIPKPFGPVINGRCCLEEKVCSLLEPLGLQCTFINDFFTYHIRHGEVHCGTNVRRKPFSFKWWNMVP
# UniProt Q9UPE1, sequence (whole entry, looked up): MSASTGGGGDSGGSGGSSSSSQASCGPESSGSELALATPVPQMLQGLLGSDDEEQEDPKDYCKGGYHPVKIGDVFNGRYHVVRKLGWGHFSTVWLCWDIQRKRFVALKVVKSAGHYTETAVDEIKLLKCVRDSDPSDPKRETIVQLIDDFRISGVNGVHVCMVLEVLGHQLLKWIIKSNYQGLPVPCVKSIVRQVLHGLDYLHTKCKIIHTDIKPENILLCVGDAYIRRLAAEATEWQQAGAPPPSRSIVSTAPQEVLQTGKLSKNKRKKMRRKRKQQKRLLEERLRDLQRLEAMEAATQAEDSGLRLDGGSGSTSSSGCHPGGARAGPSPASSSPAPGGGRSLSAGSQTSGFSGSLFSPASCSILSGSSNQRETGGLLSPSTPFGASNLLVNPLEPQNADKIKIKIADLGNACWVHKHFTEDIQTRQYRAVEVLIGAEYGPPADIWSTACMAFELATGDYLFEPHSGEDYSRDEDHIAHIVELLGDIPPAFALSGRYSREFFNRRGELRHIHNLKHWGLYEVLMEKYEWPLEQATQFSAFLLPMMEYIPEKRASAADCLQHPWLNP
# UniProt O15151, sequence (whole entry, looked up): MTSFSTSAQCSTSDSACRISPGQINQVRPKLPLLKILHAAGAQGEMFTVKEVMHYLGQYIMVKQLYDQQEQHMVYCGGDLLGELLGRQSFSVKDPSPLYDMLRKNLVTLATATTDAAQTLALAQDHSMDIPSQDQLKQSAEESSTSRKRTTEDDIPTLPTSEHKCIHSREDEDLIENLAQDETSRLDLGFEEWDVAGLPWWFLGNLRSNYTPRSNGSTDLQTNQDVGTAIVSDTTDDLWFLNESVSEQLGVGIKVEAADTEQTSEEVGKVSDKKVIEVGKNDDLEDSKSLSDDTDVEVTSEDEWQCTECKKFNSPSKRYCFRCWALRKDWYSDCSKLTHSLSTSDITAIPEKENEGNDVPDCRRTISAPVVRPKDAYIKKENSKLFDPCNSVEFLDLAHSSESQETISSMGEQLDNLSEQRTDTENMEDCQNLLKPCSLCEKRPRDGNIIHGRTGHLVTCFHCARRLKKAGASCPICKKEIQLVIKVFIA
# UniProt P15207, sequence (whole entry, looked up): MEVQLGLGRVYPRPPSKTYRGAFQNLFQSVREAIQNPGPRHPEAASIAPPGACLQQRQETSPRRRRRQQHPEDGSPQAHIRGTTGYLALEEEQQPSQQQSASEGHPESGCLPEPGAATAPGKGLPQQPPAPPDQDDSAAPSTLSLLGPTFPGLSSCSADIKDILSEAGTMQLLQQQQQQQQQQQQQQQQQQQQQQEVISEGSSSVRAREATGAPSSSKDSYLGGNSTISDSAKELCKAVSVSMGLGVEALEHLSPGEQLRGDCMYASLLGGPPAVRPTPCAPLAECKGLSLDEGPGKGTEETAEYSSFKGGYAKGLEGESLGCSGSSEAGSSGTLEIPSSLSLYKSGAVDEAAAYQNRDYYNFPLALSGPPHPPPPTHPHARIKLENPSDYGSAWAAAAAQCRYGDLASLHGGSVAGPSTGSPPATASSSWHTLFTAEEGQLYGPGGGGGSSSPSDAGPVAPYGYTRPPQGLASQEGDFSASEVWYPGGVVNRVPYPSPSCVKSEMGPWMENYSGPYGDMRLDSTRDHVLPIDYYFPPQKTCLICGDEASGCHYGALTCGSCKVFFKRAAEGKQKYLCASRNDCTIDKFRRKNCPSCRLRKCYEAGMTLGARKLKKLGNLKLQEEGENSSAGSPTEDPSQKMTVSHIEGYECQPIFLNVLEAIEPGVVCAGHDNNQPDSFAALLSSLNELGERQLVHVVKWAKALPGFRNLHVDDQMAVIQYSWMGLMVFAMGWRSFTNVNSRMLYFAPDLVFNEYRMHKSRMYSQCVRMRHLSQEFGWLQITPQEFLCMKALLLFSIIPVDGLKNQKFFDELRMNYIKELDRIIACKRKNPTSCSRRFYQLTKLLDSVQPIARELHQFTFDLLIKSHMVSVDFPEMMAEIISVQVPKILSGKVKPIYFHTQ
SMILES,target,assay,test system,conditions,inhibition
C/C=C/C(=O)Nc1ccc2nc(NCCCCCN(C)C)nc(NCCCCCCN(C)C)c2c1,"CARM1 (Homo sapiens, UniProt Q86X55)","enzyme activity, inhibitor, radiometric",,50 µM,78%
O=C1c2sc(-c3ccc(N4CCC(F)C4)nc3F)nc2CCN1c1cccnc1 (stereo not drawn),HTR1B,"ligand displacement, radioligand",,1 µM,-6%
Cc1ccc(-c2nn(-c3ccc(S(C)(=O)=O)cc3)cc2/C=N/N=C2/NC(=O)CS2)cc1,"EGFR (Homo sapiens, UniProt P00533, L858R)","kinase activity, inhibitor",,0.01 µM,33.3%
S=C(NCCCN1CCN(CCCNC(=S)NCc2ccccc2)CC1)NCc1ccccc1,CXCR4,"arrestin recruitment, DiscoverX arrestin",,30 µM,68% and 59%
CN(C)CCCCCCNc1nc(NCCCCCN(C)C)nc2ccc(NC(=O)CCl)cc12,SETDB1 triple Tudor domain,,,0.412 µM,30.1%
COc1cc(OC)c(F)c(/C=C/c2cnc3ccn(S(=O)(=O)c4cn(CCF)cn4)c3n2)c1F,"FLT3 (Homo sapiens, UniProt P36888)",,,100 nM,0.1%
C[Si](C)(C)C[C@@H](CN)CC(=O)O,"AMPA receptor, rat","binding, radioligand binding",,"75 µM, added: [3H]AMPA",5%
O=c1cc(-c2ccccc2)oc2c(Br)c(O)c(Br)c(O)c12,AMY2,"enzyme activity, inhibitor",,"50 µM, 30 min",9.22%
O=C(Nc1ccc(C(F)F)cc1)[C@H](CC1CCCCC1)Nc1nn2c(=O)ccnc2s1,"Dual specificity protein phosphatase 13B (DUSP13B, Homo sapiens, UniProt Q9UII6)","enzyme activity, inhibitor",,10 µM,-3%
CC(=S)NCCCC[C@H](NC(=O)OCc1ccccc1)C(=O)N[C@@H](Cc1c[nH]c2ccccc12)C(=O)NC(C)C,SIRT3,"enzyme activity, inhibitor",,10 µM,15%
Cc1ccc(CN(C)C(=O)C(CCc2ccccc2)NC(=O)C(NC(=O)c2ccc(OCc3ccccc3)cc2)C(C)O)cc1 (stereo not drawn),chymotrypsin,"enzyme activity, inhibitor",,100 µM,3%
COc1c(Br)c(O)c(Br)c2c1C(=O)CC(c1ccccc1)O2 (stereo not drawn),AMY2,"enzyme activity, inhibitor",,"50 µM, added: CNP-G3 substrate",43.8 ± 1.69%
COCC(=O)N1CCc2cc(-c3csc(NC(=O)c4cc(OC)cc(OC)c4)n3)ccc21,"Androgen receptor (Ar, Rattus norvegicus, UniProt P15207)",cell-free assay,,10 µM,21%
CN(C)C/C=C/C(=O)Nc1ccc2nc(NCCCCCN(C)C)nc(NCCCCCCN(C)C)c2c1,"KMT5B (Homo sapiens, UniProt Q4FZB7)","enzyme activity, inhibitor, radiometric",,10 µM,66%
CC1CCN(C(=O)c2cccc(NC(=O)Nc3cc(Cl)cc(Cl)c3)c2)CC1,"Penicillin-binding protein 4 (Staphylococcus aureus, UniProt P72355)","Bocillin-FL binding, inhibitor, fluorescence polarization",,"50 µM, added: PBP4 1 µM",no inhibition
C[C@@H](O)[C@H](NC(=O)c1ccc(OCc2ccccc2)cc1)C(=O)N[C@@H](CCc1ccccc1)C(=O)NCc1ccccc1Cl,F2,"enzyme activity, inhibitor",,100 µM,29%
C=CS(=O)(=O)Nc1ccc2nc(NCCCCCN(C)C)nc(NCCCCCCN(C)C)c2c1,SETDB1 triple Tudor domain,,,33.33 µM,123%
O=c1cc(-c2ccccc2)oc2c(Br)c(O)c(O)c(O)c12,AMY2,"enzyme activity, inhibitor",,"50 µM, 30 min",0%
CCCCCCCCCCCCNC(=S)NCCCC[C@H](NC(=O)OCc1ccccc1)C(=O)N[C@@H](Cc1ccc(O)cc1)C(=O)N[C@@H](CCCNC(=N)N)C(N)=O,SIRT1,"enzyme activity, inhibitor",,1 µM,53%
O=C(Nc1ccccc1)Nc1ccccc1,SRPK3,"binding, KINOMEscan competitive binding",,concentration not given,91.6%
O=C(CN1CCO[C@@H](COc2cccc(Cl)c2)C1)N1CCc2ccccc21,"HTR1E (Homo sapiens, UniProt P28566)",radioligand binding,,"concentration not given, added: [3H]5-HT",4.5%
Cc1ccc(CNC(=O)C(CCc2ccccc2)NC(=O)C(NC(=O)c2ccc(OCc3ccc(C(C)(C)C)cc3)cc2)C(C)O)cc1 (stereo not drawn),chymotrypsin,"enzyme activity, inhibitor",,100 µM,-8%
O=C(NC1CCC1)[C@H](Cc1c[nH]c2ccccc12)NC(=O)[C@H](CCCCNC(=S)Nc1ccc(F)c(O)c1F)NS(=O)(=O)c1cccc(F)c1,SIRT3,"enzyme activity, inhibitor",,30 µM,78%
"CC(=O)C12NC(C)(C)CC1(C)C(=O)C1=C2c2c(c3c4n2C(C)(C)CC2=C4C4(CC(C)(C)NC(C)(C4)C2=O)CC3(C)C)C(=O)C(C)(C)N1 (single isomer, unassigned; (-))","Glutamate NMDA receptor; GRIN1/GRIN2A (Homo sapiens, UniProt Q05586+Q12879)","ion current, inhibitor, patch clamp",HEK-293T,10 µM,21.4%
Cc1ccc(CNC(=O)[C@H](CCc2ccccc2)NC(=O)[C@H](CC(=O)NCC(C)(C)C)NC(=O)CCc2cccc(F)c2)cc1,F2,"enzyme activity, inhibitor",,100 µM,13%
CSCC[C@H](NC(=O)[C@H](Cc1ccccc1)NC(=O)[C@H](Cc1c[nH]c2ccccc12)NC(=O)[C@H](C)NC(=O)[C@H](Cc1c[nH]c2ccccc12)NC(=O)[C@H](Cc1c[nH]c2ccccc12)NC(=O)[C@H](CCC(=O)O)NC(C)=O)C(N)=O,"Programmed cell death 1 ligand 1, with PD-1 (CD274, Homo sapiens, UniProt Q9NZQ7)","PD-1/PD-L1 binding, ELISA",,10 µM,56.8 ± 3.7%
Brc1ccccc1-c1nnc(CSc2nnnn2-c2ccccc2)o1,"SLC6A3 (Homo sapiens, UniProt Q01959)","ligand displacement, radioligand",,10 µM,-15%
COc1ccc(C[C@H](NC(=O)Cc2cccc(Oc3ccccc3)c2)C(=O)N[C@@H](Cc2c[nH]c3ccccc23)C(=O)NCc2ccc(C)cc2)cc1OC,F2,"enzyme activity, inhibitor",,100 µM,21%
Cc1cccc(O[C@H]2CCC[C@@H](C(C)CNCc3ccncc3)C2)c1 (relative stereo),"Protein kinase C beta type, isoform beta-I (PRKCB, Homo sapiens, UniProt P05771)",kinome profiling,,10 µM,1%
Cc1ccc(N(O)/N=N/c2ccc(S(=O)(=O)Nc3nccs3)cc2)cc1,AMY2,"enzyme activity, inhibitor",,20 µg/mL,5.26%
Cc1ccc(CNC(=O)C(CCc2ccccc2)NC(=O)C(NC(=O)Cc2cccc(Oc3ccccc3)c2)C(C)O)cc1 (stereo not drawn),trypsin,"enzyme activity, inhibitor",,100 µM,3%
O=C1c2sc(-c3ccc(N4CCC(CO)CC4)nc3F)nc2CCN1c1cccnc1,GABA transporter,radioligand binding,,"1 µM, added: antagonist radioligand",-21%
Cc1ccc(CNC(=O)[C@H](CCc2ccccc2)NC(=O)[C@H](CC(=O)NCC(C)(C)C)NC(=O)c2ccc(OCc3ccccc3)cc2)cc1,F2,"enzyme activity, inhibitor",,100 µM,13%
CC(C)c1noc(CN2CC(C)N(Cc3nc(C(C)C)no3)c3ccccc32)n1 (stereo not drawn),CXCR4,"arrestin recruitment, DiscoverX arrestin",,30 µM,69% and 75%
CCCCCCCCCCCCNC(=S)NCCCC[C@H](NC(=O)OCc1ccccc1)C(=O)N1CCC[C@H]1C(=O)N[C@@H](CCCNC(=N)N)C(N)=O,SIRT1,"enzyme activity, inhibitor",,10 µM,17%
CC(C)NC(=O)[C@H](CCc1ccccc1)NC(=O)[C@H](CC(=O)NCC(C)(C)C)NC(=O)CCc1ccccc1,chymotrypsin,"enzyme activity, inhibitor",,100 µM,-10%
c1ccc(OC[C@H]2CN(CCN3CCc4ccccc43)CCO2)nc1,HTR1B,radioligand binding,,"concentration not given, added: [3H]5-CT",9.2%
CC(=O)N[C@H](C(=O)N[C@@H](CO)C(=O)N[C@@H](Cc1ccccc1)C(=O)N[C@H]1CCCCNC(=N)NCCCCNC(=N)NCCCC[C@@H](C(=O)N2CCC[C@H]2C(N)=O)NC(=O)[C@H](CC(C)C)NC(=O)[C@H](CC(C)C)NC(=O)[C@H](C)NC(=O)[C@H](Cc2c[nH]c3ccccc23)NC(=O)[C@H](Cc2ccc(O)cc2)NC(=O)[C@H](CCC(=O)O)NC1=O)[C@@H](C)O,"Protein Mdm4 (MDM4, Homo sapiens, UniProt O15151)","protein-protein interaction, inhibitor, TR-FRET",,0.1 µM,≥ 90%
O=C(NC1CCC1)[C@H](Cc1c[nH]c2ccccc12)NC(=O)[C@H](CCCCNC(=S)NCCc1noc(=O)[nH]1)NS(=O)(=O)c1cccc(F)c1,SIRT3,"enzyme activity, inhibitor",,10 µM,3%
COc1ccc(NC(=O)Nc2ccccc2)c(OC)c1,SRPK3,"binding, KINOMEscan competitive binding",,concentration not given,58%
CN(Cc1ccc(/C=C/C(=O)NO)cc1)CC12CC3CC(CC(C3)C1)C2,human NK1 receptor,agonist radioligand binding,,0.05 µM,-10%
C=C(NC(=O)[C@H](CCCCNC(=S)NCCCCCCCCCCCC)NC(=O)OCc1ccccc1)C(=O)N[C@@H](CCCNC(=N)N)C(N)=O,SIRT3,"enzyme activity, inhibitor",,1 µM,56%
Cl.Cl.N[C@@H](C(=O)N1CCCC1)C1CCN(c2nccc3c(-c4ncc(Cl)cc4Cl)cccc23)CC1,"PADI4 (Homo sapiens, UniProt Q9UM07)","enzyme activity, inhibitor",,"78.2 nM, added: Ca2+ 0.4 mM",3.99% and -3.34% and -0.107%
CCCCCCCCCCCCNC(=S)NCCCC[C@H](NC(=O)OCc1ccccc1)C(=O)N[C@@H](Cc1ccc(O)c([N+](=O)[O-])c1)C(=O)N[C@@H](CCCNC(=N)N)C(N)=O,SIRT1,"enzyme activity, inhibitor",,1 µM,56%
C[Si]1(C[C@H](CN)CC(=O)O)CCCC1,"AMPA receptor, rat","binding, radioligand binding",,"70 µM, added: [3H]AMPA",-2%

# Some of these lines once more:
SMILES,target,assay,test system,conditions,inhibition
O=C(CN1CCO[C@@H](COc2cccc(Cl)c2)C1)N1CCc2ccccc21,"HTR1E (Homo sapiens, UniProt P28566)",radioligand binding,,"concentration not given, added: [3H]5-HT",4.5%
Cc1ccc(CNC(=O)C(CCc2ccccc2)NC(=O)C(NC(=O)c2ccc(OCc3ccc(C(C)(C)C)cc3)cc2)C(C)O)cc1 (stereo not drawn),chymotrypsin,"enzyme activity, inhibitor",,100 µM,-8%
O=C(NC1CCC1)[C@H](Cc1c[nH]c2ccccc12)NC(=O)[C@H](CCCCNC(=S)Nc1ccc(F)c(O)c1F)NS(=O)(=O)c1cccc(F)c1,SIRT3,"enzyme activity, inhibitor",,30 µM,78%
